Results of several laboratories.
A part holds a random share of what one study measured. Substitutions count along the parent as printed.

Study 1 — technique: Sort-seq; item: YFP reporter; sample: E. coli; notes: PhoQ-PhoP variant library; added: 10 µM Mg2+; reference: high Mg2+ state; reading: higher = stronger signaling; endpoint: fold induction
Molecule: PhoQ, residues 284 288 289 292 302 303 SIHMAM
target = PhoP, residues 12 14 15 18 19 HHYTI (Escherichia coli, UniProt P23836); result = 1.83
target = PhoP, residues 12 14 15 18 19 SFCSL (Escherichia coli, UniProt P23836); result = 13.8
target = PhoP, residues 12 14 15 18 19 AYFRS (Escherichia coli, UniProt P23836); result = 8.87

Study 2 — technique: protein binding microarray; molecule type: double-stranded DNA, one strand shown; sample: in vitro; tested at: not given; reference: not given; reading: higher = stronger binding; endpoint: E-score
Target: Histone acetyltransferase KAT6A, both winged helices, GST fusion (KAT6A, Homo sapiens, UniProt Q92794, residues 1-181)
Notes: 8-mer, flanks averaged, mean of 2 arrays, mostly near background
Residues (chain): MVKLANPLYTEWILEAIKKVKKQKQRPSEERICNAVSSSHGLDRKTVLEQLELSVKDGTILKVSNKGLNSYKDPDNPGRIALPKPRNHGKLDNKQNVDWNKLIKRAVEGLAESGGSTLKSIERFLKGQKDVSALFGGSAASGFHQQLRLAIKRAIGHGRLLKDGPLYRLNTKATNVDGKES
Sequence = ATAACTCA; result = -0.11
Sequence = CCTCCAGG; result = -0.131
Sequence = AAAATCAA; result = 0.0141
Sequence = ACGCATCT; result = 0.00385
Sequence = GACGCGCA; result = 0.308
Sequence = ACGCAATG; result = 0.0432
Sequence = GTAAGGAA; result = -0.188
Sequence = TTGCGCAA; result = 0.245
Sequence = AACAGGGC; result = -0.107
Sequence = AAATGAGA; result = -0.0793
Sequence = AAGTTTCA; result = 0.0618
Sequence = GTCGGAAC; result = 0.119

Study 3 — target: CCNE1, cyclin fold, Cln2 fusion (human); technique: yeast growth competition, sequencing; sample: yeast; notes: strong parent motif; reference: not given; reading: higher = stronger binding; endpoint: normalised enrichment score
Parent: RBL2 docking peptide (human); STTRRRLFVENDS; partner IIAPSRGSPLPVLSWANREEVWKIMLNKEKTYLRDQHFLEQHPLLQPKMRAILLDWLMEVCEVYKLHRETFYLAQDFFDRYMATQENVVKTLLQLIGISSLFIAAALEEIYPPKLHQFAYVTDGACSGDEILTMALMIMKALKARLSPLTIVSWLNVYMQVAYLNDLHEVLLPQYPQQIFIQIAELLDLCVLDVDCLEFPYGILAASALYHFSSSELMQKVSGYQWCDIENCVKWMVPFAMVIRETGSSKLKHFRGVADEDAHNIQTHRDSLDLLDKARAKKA
Substitution = STTRNRLFVENDS [R5N]; result = 0.381
Substitution = STTRRRLFVENWS [D12W]; result = 3.91
Substitution = STTRRRLFVENDP [S13P]; result = 5.88
Substitution = STTRRRGFVENDS [L7G]; result = -0.825
Substitution = STTRRCLFVENDS [R6C]; result = 2.65
Substitution = STTRRRLFVSNDS [E10S]; result = 3.97
Substitution = STTRWRLFVENDS [R5W]; result = 0.44
Substitution = STTRRRLFVENHS [D12H]; result = 3.94

Study 4 — technique: competition protein-binding microarray; molecule type: double-stranded DNA, one strand shown; sample: in vitro; tested at: 2 µM; added: Pho4 competitor, 0.05 µM; reading: higher = stronger binding; endpoint: fluorescence intensity; constant ends, left off below: … GTCTTGATTCGCTTGACGCTGCTG
Target: Centromere-binding protein 1, full length, His-tagged (CBF1, Saccharomyces cerevisiae, UniProt P17106, residues 1-351)
Chain of UniProt P17106 (whole entry, looked up): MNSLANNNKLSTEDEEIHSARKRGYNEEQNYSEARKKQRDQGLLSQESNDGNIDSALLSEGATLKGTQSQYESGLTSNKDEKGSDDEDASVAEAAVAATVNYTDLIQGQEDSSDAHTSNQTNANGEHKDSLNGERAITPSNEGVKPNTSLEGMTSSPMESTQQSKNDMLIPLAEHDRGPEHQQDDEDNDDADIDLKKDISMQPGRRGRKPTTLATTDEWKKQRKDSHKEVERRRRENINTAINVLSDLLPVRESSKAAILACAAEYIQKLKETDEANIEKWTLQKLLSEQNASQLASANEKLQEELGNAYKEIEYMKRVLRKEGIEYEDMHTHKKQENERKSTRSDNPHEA
Notes: whole 60-bp probe, lowest competitor level
Sequence = GTTTCAAAAACCGGCCACGTACCCAAAGGTCGCCCG; result = 52.7 a.u.
Sequence = CTTGTTATGTGGGAGCCCGTGAGAGGCTTGAAGTGG; result = 85.7 a.u.
Sequence = ATCTTGTTGCTGTTCTACGTGCTTTAGTGTAGTATT; result = 78.7 a.u.
Sequence = CTTCTGTAAATTTAGCACGTGTTTTGACGCGCCCCG; result = 2920 a.u.
Sequence = ATCACCCCGGTCCCGCACGTGTTCCTGTGCTCCCCT; result = 713 a.u.
Sequence = TGCGCAACAACTTGACACGTGGGTGTATGTCTAGAA; result = 1040 a.u.
Sequence = ACCGTAAAATGGCCTCACGTGGAACGCTCCCGTCTA; result = 760 a.u.
Sequence = GGCTCGCGCTAGAATCGTGTGCAGCAGCTCCACATC; result = 71.3 a.u.

For quick reference, copied from above (study 3):
Substitution = STTRNRLFVENDS [R5N]; result = 0.381
Substitution = STTRRRLFVENWS [D12W]; result = 3.91
Substitution = STTRRRLFVENDP [S13P]; result = 5.88
Substitution = STTRRRGFVENDS [L7G]; result = -0.825
Substitution = STTRRCLFVENDS [R6C]; result = 2.65
